Published values gathered from unrelated publications.
Protocols differ between the studies behind these lines. Values joined by “and” are separate records of one study, mostly repeats; a detail may differ. ± marks the error that the study gave.

SMILES	cell line	assay	setting	IC50
N[C@@H](CC(=O)N1CCN(C(c2ccc(F)cc2)c2ccc(F)cc2)CC1)C(=O)N1Cc2ccccc2C1	NOMO-1	cell viability, CellTiter-Glo	day 2	4.7 µM
O=C(C[C@@H](C(F)F)n1ccc(F)n1)N1CCC(O)(Cn2cnc3c(cnn3-c3ccc(F)cc3)c2=O)CC1	LNCaP USP7 V517F knock-in	cell viability, CCK-8	5 days	4.3 µM and 3.19 µM and 3.4 µM and 4.16 µM and 3.14 µM
CCCCN1C[C@H](O)[C@@H](O)[C@@H](O)[C@H]1CO	sample A patient fibroblasts	Gb3 level lowering, LC-MS/MS, item: Gb3 d18:1/24:0	216 h	18.4 µM
CC(C)[C@@H]1NC(=O)[C@H](Cc2c[nH]cn2)NC1=O	NCI-H446/EP	cell growth, SRB		> 15 µM
O=C(O)CCCc1ccccc1	2008 ovarian adenocarcinoma, cisplatin-sensitive	MTT	72 h	> 50 µM
COc1ccc(-c2nc(N3CCOCC3)c3sc(CN(C)c4ncc(C(=O)NO)cn4)cc3n2)cn1	uveal melanoma cell lines	cell viability	average over cell lines	0.0109 µM
O=C1C(Br)=C(Br)C(=O)c2ccccc21	MRC-5	cell viability, alamarBlue	24 h	15.4 µM
COC(=O)/C=C/C(=O)OCCN1C(=O)CCC1=O	THP1-ASC-GFP cells	ASC speck formation, high-content imaging	1 h pretreatment, added: LPS priming and nigericin	1.93 µM
COc1ccc(F)cc1C(=O)NCc1ccc(-c2nn([C@@H](C)C(F)(F)F)c(N)c2C(N)=O)cc1	Rec1	item: EOTAXIN	24 h	> 0.1 µM
Clc1ccc(C[n+]2cn(CCc3ccccc3)c3ccccc32)cc1	H1299 (p53 null)	cell viability, MTT	72 h	27.5 ± 1.3 µM
C[C@H]1Oc2cc(cnc2N)-c2c(nn(C)c2C#N)CN(C)C(=O)c2ccc(F)cc21	Ba/F3 EML4-ALK variant 1 L1196Q	cell viability		0.0192 µM
Cc1c(C)c2c(c(C)c1O)CCC(C)(COc1ccc(CC3SC(=O)NC3=O)cc1)O2 (stereo not shown)	hepatocytes, iPSC-derived, line L2	cell viability, RealTime-Glo MT	24 h, differentiation day 23	34 µM
C=CC(=O)NC1CCN(c2ncc3ncnc(Nc4ccc(Oc5ccc6c(c5)ncn6C)c(C)c4)c3n2)CC1	Ba/F3 expressing HER2 L755P	cell growth, inhibitor, CellTiter-Glo		0.0692 µM
O=C(O)COCC(=O)O	hepatocytes, iPSC-derived, line L2	cell viability, RealTime-Glo MT	48 h, differentiation day 23	2010 µM
CC1=C(CO)C(=O)O[C@@H]([C@@H](C)[C@H]2CC[C@H]3[C@@H]4C[C@H]5O[C@]56[C@@H](O)C=CC(=O)[C@]6(C)[C@H]4CC[C@]23C)C1	THP1-ASC-GFP cells	ASC speck formation, high-content imaging	1 h pretreatment, added: LPS priming and nigericin	0.29 µM
COc1nnc2ccc(N3CCC(c4ccc(OCCN5CCN(C)C(=O)[C@H]5C)cc4)CC3)nn12	uveal melanoma cell lines	cell viability	average over cell lines	0.0825 µM
CS(=O)(=O)CCNCc1ccc(-c2ccc3ncnc(Nc4ccc(OCc5cccc(F)c5)c(Cl)c4)c3c2)o1	Ba/F3 expressing HER2 V777L	cell growth, inhibitor, CellTiter-Glo		0.0583 µM
CC1(C)COc2ccc(F)cc2CN2c3nc4c(cnn4cc3OC[C@H]2C(F)F)C(=O)N1	Ba/F3 ETV6-TRKB	cell viability		0.0009 µM
COc1cc([C@@H]2c3cc4c(cc3[C@H](O)[C@H]3COC(=O)[C@H]23)OCO4)cc(OC)c1OC	uveal melanoma cell lines	cell viability	average over cell lines	0.00936 µM

Some of these lines once more:
SMILES	cell line	assay	setting	IC50
CC1(C)COc2ccc(F)cc2CN2c3nc4c(cnn4cc3OC[C@H]2C(F)F)C(=O)N1	Ba/F3 ETV6-TRKB	cell viability		0.0009 µM
